Results gathered from unrelated publications.
Lines come from different studies, so protocols differ. Values joined by “and” are separate records of one study, mostly repeats; a detail may differ. Numbers after ± are the reported error.
RPA1 N-terminal domain: Replication protein A 70 kDa DNA-binding subunit, N-terminal domain (RPA1, Homo sapiens, UniProt P27694)
EPHA2: Ephrin type-A receptor 2 (EPHA2, Homo sapiens, UniProt P29317)
CD27: CD27 antigen (CD27, Homo sapiens, UniProt P26842)
CD28: CD28 (Homo sapiens, UniProt P10747)
Tumor necrosis factor receptor superfamily member 9: Tumor necrosis factor receptor superfamily member 9 (Homo sapiens, UniProt Q07011)
BTK non-phosphorylated: Tyrosine-protein kinase BTK, non-phosphorylated (BTK, Homo sapiens, UniProt Q06187)

Amino acid sequences for entries named in this document (tags omitted). Residues count along the entry.
UniProt P26842, whole entry, looked up: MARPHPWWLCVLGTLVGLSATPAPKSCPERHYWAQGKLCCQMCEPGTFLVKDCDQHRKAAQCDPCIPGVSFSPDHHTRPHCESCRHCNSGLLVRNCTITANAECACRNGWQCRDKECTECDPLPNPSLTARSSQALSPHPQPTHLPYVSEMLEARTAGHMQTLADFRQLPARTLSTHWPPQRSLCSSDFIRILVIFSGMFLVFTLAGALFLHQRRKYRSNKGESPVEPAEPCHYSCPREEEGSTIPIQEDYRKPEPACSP
UniProt P10747, whole entry, looked up: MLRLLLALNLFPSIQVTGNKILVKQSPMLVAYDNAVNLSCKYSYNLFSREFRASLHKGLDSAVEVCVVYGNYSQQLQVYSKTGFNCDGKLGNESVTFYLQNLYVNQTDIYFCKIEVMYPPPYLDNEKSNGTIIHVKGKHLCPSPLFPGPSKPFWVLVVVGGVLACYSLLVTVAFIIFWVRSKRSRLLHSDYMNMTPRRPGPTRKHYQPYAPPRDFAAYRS
UniProt Q06187, whole entry: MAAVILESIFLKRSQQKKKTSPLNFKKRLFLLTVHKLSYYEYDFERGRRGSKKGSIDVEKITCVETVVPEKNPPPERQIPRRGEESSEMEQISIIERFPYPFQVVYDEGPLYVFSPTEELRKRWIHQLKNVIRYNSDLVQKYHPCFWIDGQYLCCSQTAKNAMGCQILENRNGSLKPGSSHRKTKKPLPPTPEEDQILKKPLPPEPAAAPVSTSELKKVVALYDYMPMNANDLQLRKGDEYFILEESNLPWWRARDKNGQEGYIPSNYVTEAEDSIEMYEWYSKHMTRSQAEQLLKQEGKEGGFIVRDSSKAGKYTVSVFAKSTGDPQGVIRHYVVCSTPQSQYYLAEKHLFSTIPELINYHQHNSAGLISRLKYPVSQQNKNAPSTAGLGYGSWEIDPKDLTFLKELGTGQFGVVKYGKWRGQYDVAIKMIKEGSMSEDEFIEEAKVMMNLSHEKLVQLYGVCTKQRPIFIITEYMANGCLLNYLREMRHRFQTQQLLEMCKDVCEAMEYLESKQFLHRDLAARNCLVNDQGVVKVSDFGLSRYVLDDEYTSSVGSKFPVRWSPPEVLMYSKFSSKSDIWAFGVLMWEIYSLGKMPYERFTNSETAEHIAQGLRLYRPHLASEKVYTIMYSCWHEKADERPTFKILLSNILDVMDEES
UniProt Q9Y3Z3, whole entry: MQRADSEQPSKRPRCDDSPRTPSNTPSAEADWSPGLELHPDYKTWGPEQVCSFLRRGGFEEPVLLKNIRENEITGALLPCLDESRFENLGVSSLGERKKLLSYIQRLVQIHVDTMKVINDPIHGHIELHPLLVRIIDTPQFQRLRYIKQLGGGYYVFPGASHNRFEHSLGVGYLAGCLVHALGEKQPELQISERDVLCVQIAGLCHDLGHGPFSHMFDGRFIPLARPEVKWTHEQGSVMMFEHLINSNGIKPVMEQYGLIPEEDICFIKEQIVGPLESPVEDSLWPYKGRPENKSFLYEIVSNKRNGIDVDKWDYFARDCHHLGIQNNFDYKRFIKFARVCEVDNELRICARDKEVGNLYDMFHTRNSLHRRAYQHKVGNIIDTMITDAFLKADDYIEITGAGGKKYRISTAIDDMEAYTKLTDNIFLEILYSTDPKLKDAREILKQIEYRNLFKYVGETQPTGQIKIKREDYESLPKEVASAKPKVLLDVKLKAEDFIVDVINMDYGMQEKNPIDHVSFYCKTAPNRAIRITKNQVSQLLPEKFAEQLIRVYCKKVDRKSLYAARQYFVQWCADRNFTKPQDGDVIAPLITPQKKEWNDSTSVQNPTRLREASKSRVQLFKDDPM
UniProt O95619, 9-151 limits assumed: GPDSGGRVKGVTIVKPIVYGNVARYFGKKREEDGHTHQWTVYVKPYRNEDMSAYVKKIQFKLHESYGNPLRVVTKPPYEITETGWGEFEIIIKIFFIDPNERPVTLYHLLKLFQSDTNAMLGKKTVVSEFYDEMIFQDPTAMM
UniProt P35222, whole entry, looked up: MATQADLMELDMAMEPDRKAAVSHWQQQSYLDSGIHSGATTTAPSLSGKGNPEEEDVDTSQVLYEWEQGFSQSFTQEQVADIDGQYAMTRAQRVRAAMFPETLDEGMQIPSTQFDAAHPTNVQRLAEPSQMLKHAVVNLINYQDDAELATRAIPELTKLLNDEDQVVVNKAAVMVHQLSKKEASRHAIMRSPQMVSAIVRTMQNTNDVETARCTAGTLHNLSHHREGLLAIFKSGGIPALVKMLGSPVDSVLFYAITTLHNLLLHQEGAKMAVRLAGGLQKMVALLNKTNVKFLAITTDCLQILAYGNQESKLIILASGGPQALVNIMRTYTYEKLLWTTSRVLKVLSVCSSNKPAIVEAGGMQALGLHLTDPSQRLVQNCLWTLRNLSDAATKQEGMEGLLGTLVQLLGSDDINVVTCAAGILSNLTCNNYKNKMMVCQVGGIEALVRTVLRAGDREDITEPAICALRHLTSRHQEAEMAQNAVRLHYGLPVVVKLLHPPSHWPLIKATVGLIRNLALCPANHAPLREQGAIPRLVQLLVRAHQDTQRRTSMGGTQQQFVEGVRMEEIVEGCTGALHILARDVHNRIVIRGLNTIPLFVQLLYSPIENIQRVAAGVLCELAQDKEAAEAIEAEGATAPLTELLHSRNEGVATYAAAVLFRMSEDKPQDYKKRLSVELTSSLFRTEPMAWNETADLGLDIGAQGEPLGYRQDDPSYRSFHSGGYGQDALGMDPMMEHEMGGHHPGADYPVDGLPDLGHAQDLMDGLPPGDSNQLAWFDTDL
UniProt Q8TDQ0, whole entry, looked up: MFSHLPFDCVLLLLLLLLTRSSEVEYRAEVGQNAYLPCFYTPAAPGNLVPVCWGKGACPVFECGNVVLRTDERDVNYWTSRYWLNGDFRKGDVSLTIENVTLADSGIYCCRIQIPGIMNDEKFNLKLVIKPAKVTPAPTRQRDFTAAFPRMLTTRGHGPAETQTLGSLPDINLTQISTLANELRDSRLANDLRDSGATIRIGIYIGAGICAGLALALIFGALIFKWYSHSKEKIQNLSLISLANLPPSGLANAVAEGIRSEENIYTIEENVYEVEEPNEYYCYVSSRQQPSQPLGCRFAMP
UniProt Q9UBZ9, 1158-1251 limits assumed: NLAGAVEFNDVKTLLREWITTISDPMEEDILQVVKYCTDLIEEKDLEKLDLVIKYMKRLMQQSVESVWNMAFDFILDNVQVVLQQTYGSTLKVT
UniProt Q86U86, whole entry Q216E, looked up: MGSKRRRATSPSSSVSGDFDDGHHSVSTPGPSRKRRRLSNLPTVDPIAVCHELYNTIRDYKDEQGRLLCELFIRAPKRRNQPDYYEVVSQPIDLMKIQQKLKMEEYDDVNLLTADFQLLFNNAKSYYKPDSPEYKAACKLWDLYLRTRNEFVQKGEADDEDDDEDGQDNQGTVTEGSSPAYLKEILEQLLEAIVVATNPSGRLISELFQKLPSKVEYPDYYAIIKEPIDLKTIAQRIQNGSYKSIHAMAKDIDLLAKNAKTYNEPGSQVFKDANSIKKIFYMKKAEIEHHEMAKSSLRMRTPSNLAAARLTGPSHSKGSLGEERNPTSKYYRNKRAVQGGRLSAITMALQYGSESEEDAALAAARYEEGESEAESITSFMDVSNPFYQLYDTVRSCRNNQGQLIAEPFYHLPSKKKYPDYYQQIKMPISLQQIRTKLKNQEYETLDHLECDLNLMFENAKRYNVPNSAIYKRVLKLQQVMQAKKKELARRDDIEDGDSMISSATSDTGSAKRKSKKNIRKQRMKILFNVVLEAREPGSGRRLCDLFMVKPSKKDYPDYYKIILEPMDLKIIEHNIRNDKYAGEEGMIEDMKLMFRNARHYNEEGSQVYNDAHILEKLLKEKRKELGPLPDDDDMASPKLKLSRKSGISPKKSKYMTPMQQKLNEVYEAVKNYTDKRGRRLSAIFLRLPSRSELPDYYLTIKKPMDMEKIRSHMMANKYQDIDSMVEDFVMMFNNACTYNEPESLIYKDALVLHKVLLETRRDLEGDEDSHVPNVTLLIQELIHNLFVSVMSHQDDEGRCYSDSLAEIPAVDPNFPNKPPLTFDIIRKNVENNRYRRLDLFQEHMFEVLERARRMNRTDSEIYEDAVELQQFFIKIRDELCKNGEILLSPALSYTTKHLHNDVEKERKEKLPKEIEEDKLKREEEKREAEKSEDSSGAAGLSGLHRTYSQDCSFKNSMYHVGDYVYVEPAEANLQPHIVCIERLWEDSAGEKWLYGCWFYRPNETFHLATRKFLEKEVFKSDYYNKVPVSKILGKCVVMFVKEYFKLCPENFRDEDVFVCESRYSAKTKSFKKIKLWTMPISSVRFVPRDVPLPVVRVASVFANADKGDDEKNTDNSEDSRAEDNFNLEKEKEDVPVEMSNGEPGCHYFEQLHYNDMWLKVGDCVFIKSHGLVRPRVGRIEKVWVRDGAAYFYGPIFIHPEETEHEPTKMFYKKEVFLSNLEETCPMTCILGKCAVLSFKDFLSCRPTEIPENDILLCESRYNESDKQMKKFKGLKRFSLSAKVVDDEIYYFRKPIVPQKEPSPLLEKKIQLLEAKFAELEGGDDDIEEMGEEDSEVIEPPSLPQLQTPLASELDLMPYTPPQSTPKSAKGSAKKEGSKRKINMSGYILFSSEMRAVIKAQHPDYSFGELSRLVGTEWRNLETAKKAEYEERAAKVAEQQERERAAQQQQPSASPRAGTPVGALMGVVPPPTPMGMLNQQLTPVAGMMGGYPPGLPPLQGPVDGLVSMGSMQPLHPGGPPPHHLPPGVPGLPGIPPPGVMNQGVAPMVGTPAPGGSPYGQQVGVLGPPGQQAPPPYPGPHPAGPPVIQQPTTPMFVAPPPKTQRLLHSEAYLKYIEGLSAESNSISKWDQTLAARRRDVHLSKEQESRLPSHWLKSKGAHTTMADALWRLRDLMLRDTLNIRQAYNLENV
UniProt Q99497, whole entry: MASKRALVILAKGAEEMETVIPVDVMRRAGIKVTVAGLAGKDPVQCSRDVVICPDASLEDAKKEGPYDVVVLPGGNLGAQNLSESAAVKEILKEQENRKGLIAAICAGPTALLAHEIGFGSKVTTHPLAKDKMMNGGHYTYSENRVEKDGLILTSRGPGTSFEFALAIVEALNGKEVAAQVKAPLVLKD
UniProt P0DMS8, whole entry: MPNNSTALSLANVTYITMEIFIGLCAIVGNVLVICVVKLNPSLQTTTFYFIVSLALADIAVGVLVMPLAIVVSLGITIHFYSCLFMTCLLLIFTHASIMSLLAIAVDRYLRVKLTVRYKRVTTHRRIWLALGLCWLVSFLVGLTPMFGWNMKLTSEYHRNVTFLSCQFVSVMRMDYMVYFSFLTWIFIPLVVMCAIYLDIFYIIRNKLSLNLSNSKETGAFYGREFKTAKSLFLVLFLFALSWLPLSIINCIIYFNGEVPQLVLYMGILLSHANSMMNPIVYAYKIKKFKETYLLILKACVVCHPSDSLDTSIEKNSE
UniProt Q09472, 1049-1156 limits assumed: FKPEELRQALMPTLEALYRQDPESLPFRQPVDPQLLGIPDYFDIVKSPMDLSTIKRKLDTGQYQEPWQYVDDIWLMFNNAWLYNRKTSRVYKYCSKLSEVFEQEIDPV
UniProt O15294, 323-1041 limits assumed: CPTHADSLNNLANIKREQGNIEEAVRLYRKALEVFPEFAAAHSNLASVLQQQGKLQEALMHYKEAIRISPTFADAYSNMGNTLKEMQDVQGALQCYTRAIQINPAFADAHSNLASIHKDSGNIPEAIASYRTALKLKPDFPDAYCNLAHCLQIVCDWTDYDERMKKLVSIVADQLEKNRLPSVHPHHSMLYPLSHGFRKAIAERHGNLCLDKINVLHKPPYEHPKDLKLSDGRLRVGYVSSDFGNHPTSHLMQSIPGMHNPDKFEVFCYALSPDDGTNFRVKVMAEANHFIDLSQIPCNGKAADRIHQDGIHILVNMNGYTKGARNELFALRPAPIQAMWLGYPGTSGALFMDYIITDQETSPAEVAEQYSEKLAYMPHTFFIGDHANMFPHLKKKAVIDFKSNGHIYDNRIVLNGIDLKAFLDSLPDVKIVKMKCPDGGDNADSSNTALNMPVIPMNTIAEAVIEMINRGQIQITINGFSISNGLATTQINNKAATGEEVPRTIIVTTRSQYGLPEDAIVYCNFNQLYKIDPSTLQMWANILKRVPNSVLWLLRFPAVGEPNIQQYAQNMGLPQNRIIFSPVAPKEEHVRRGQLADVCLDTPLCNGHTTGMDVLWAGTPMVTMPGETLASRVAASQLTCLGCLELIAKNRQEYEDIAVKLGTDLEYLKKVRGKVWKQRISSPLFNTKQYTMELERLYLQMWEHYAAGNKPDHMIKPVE
UniProt P23526, 2-432 limits assumed: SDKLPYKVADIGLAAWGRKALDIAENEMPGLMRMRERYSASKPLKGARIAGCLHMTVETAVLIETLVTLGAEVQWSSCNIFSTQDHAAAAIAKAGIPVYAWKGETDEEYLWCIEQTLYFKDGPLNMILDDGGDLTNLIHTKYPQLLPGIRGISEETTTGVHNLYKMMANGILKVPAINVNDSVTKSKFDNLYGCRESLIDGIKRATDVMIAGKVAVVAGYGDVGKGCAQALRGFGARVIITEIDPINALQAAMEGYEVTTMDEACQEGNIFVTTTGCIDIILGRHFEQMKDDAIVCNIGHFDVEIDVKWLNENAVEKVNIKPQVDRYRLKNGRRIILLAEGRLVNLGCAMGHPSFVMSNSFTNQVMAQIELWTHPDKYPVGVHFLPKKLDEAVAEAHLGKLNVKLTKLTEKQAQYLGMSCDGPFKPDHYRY

SMILES	target	assay	system	conditions	Kd
Cc1cc(=O)[nH]c(-c2cccc(NC(=O)c3ccc(N(C)C)cc3)c2)n1	Cystathionine gamma-synthase 1, chloroplastic (CGS1, Arabidopsis thaliana, UniProt P55217)	binding, microscale thermophoresis	–	–	39.6 µM
Cc1ccc(C(=O)Nc2ccccc2C(=O)O)cc1S(=O)(=O)Nc1ccccc1	RPA1 N-terminal domain	binding, fluorescence polarisation competition	–	with: FITC-ATRIP probe	156 ± 11 µM
Nc1nc2c(ncn2COCCNC(=O)c2cc3cc(Br)ccc3c(Br)c2O)c(=O)[nH]1	Deoxynucleoside triphosphate triphosphohydrolase SAMHD1, A1 site (SAMHD1, Homo sapiens, UniProt Q9Y3Z3)	binding at allosteric site A1, fluorescence anisotropy competition	–	1 µM protein	13 ± 3 µM
Cc1ccc(C(=O)Nc2cc(C(F)(F)F)cc(C(F)(F)F)c2)cc1Nc1nc(-c2cccnc2)nc2c1cnn2C	EPHA2	binding, microscale thermophoresis	kinase domain	25 °C, 5% DMSO	0.284 µM
O=C(Nc1ccc(C(=O)N2CC(c3nccs3)C2)s1)[C@@H]1CCCN1	YEATS domain-containing protein 4, YEATS domain (Homo sapiens, UniProt O95619)	ITC	YEATS domain	25 °C	7.9 µM
Cc1cccc(NS(=O)(=O)c2cc(C(=O)Nc3ccccc3C(=O)O)ccc2C)c1	RPA1 N-terminal domain	binding, fluorescence polarisation competition	–	with: FITC-ATRIP probe	165 ± 34 µM
Cc1cccc(C(=O)Nc2cc(-c3cncc4ccccc34)ccc2N2CCN(C)CC2)c1	WDR5 (Homo sapiens, UniProt P61964)	binding, surface plasmon resonance	–	–	~116 µM
COCCN(CCOC)Cc1c(O)ccc2c1O/C(=C\c1cn(C)c3ccccc13)C2=O	CD27	binding, microscale thermophoresis	–	–	1.46 µM
Cc1ccc(C(=O)Nc2cc(Cl)ccc2C(=O)O)cc1S(=O)(=O)Nc1ccc(Br)cc1	RPA1 N-terminal domain	binding, fluorescence polarisation competition	–	with: FITC-ATRIP probe	25 ± 2 µM
O=S(=O)(Cc1ccc(-c2nc(-c3cccnc3)no2)o1)c1ccc(Cl)cc1	Catenin beta-1, residues 141-305 (CTNNB1, Homo sapiens, UniProt P35222)	isothermal titration calorimetry	–	25 °C	0.27 µM
COc1ccccc1NC(=O)c1ccc(NC(=O)C(C)Sc2ccc(NC(C)=O)cc2)cc1 (stereo not drawn)	Hepatitis A virus cellular receptor 2 (Homo sapiens, UniProt Q8TDQ0)	microscale thermophoresis	–	–	0.92 µM
Cc1ccc(C(=O)Nc2cccc(C#N)c2)cc1Nc1nc(-c2cccnc2)nc2c1cnn2C	EPHA2	binding, microscale thermophoresis	kinase domain	25 °C, 5% DMSO	0.004 µM
Cc1ccc(N=Nc2ccc(N)cc2N)cc1C	DNA repair protein REV1, C-terminal domain (Homo sapiens, UniProt Q9UBZ9)	microscale thermophoresis	–	cis-trans isomer mixture, with: labelled DNA repair protein REV1 20 nM	3.9 ± 0.2 µM
COc1cc(/C=C/c2ccc3cc(OCC[18F])ccc3n2)ccn1	Alpha-synuclein, fibrils (SNCA, Homo sapiens, UniProt P37840)	fibril binding, homologous radioligand competition	–	1 h, 37 °C	0.079 µM
O=C(Cn1c(=O)c2sccc2n(Cc2ccc([N+](=O)[O-])cc2)c1=O)NCc1ccco1	CD27	binding, microscale thermophoresis	–	–	0.86 µM
COc1cc(C(=O)N2CCC(N3CCN(C)CC3)CC2)ccc1Nc1ncc2c(n1)N(C1CCCC1)c1ccccc1C(=O)N2C	Bromodomain-containing protein 4, BD1 (BRD4, Homo sapiens, UniProt O60885)	isothermal titration calorimetry	–	–	0.156 ± 0.012 µM
O=C(O)c1ccncc1Nc1nn(CCN2CCC(F)(F)CC2)c2ccc(F)cc12	KDM5B (Homo sapiens, UniProt Q9UGL1)	binding, isothermal titration calorimetry	–	–	0.025 to 0.05 µM
CN(C(=O)CSc1nnc(Nc2ccccc2F)s1)c1ccccc1	CD28	binding, microscale thermophoresis	–	–	30.5 ± 4.8 µM
O=C(NNC(=S)Nc1cccc(C(F)(F)F)c1)c1cccn1-c1ccc(F)cc1	Activator of 90 kDa heat shock protein ATPase homolog 1, C-terminal domain (AHSA1, Homo sapiens, UniProt O95433)	binding, fluorescence quenching	acetylated Aha1 C-terminal domain	–	0.4 µM
Cc1ccc(C(=O)Nc2cccc(C)c2C(=O)O)cc1S(=O)(=O)Nc1ccc(Br)cc1	RPA1 N-terminal domain	binding, fluorescence polarisation competition	–	with: FITC-ATRIP probe	73 ± 0.5 µM
CC(=O)Nc1ncc(CN2CC[C@H](Oc3cccc(F)n3)C[C@@H]2C)s1 [isotope labelled]	Protein O-GlcNAcase (Rattus norvegicus, UniProt Q8VIJ5)	saturation binding	rat hippocampus homogenate	radiolabelled compound	0.0048 ± 0.0037 µM
Cc1cccc(C2NC(=O)c3c(Cl)cccc3N2)c1 (racemic)	Protein polybromo-1, BD2 (PBRM1, Homo sapiens, UniProt Q86U86, Q216E)	ITC	–	negative control mutant	3.6 ± 0.4 µM
O=S(=O)(c1cccc2cnccc12)N1CCNCC1	ROCK1 (Homo sapiens, UniProt Q13464)	KINOMEscan binding	–	–	0.056 µM

SMILES	target	assay	system	conditions	Kd
COCCOCCOCCN1/C(=C/C=C/C=C/C=C/C2=[N+](CCCCCC(=O)NCCCC[C@H](NC(=O)N[C@@H](CCC(=O)O)C(=O)O)C(=O)O)c3ccc(S(=O)(=O)[O-])cc3C2(C)C)C(C)(C)c2ccccc21	FOLH1 (Homo sapiens, UniProt Q04609)	binding, biolayer interferometry	–	–	2.48 ± 0.49 µM
Cc1cc(C)nc(N=C(NCCc2c[nH]c3ccc(Cl)cc23)NC(=S)Nc2ccccc2C)n1	Tumor necrosis factor receptor superfamily member 9	binding, microscale thermophoresis	–	–	4.13 µM
O=C1Nc2ccc(F)cc2C1=O	PARK7 (Homo sapiens, UniProt Q99497)	binding, ITC	–	25 °C, 5% DMSO	0.93 ± 0.05 µM
O[C@@H]1[C@H](O)[C@@H]2C[C@@H]2[C@H]1n1cnc2c(NCc3cccc([125I])c3)nc(Cl)nc21	ADORA3 (Homo sapiens, UniProt P0DMS8)	binding, kinetic radioligand binding	HEK293 cell membranes	–	0.0035 ± 0.00146 µM
NS(=O)(=O)c1ccc(Cc2c(-c3ccc(F)c(C#CC4CCCC4)c3)nn(-c3nc(C(=O)O)cs3)c2CC2CC2)cc1F	LDHA (Homo sapiens, UniProt P00338)	binding, SPR	–	with: NADH	1.9e-05 µM
Cc1noc(C)c1-c1ccc2nc(-c3cnn(CC(C)(C)O)c3)nc(N3CCOC[C@@H]3c3ccccc3)c2c1 (single isomer, unassigned)	EP300 (Homo sapiens, UniProt Q09472)	BROMOscan competition binding	–	–	0.19 µM
Cc1ccc(NS(=O)(=O)c2cc(C(=O)Nc3ccccc3C(=O)O)ccc2C)cc1	RPA1 N-terminal domain	binding, fluorescence polarisation competition	–	with: FITC-ATRIP probe	196 µM
O=C(O)CCCOc1ccccc1[C@@H](NS(=O)(=O)c1ccc2[nH]c(=O)ccc2c1)C(=O)N(CC(=O)O)Cc1cccs1	OGT (Homo sapiens, UniProt O15294)	binding, microscale thermophoresis	–	active site	~0.005 µM
C#CCOc1ccc(C[C@H](N)C(=O)N[C@@H](CC(=O)O)C(=O)N[C@@H](CO)C(=O)N[C@@H](CCC(=O)O)C(=O)N[C@H](C(=O)NCC(=O)N[C@@H](CCC(=O)O)C(=O)N[C@@H](CS)C(=O)O)[C@@H](C)O)cc1	Kelch-like ECH-associated protein 1, Kelch domain (KEAP1, Homo sapiens, UniProt Q14145)	plate binding	–	FLAG-CBD-fused peptide	0.555 ± 0.017 µM
COc1ccccc1-n1nc(C)nc1C(O)Cc1ccccc1 (stereo not drawn)	B- and T-lymphocyte attenuator (BTLA, Homo sapiens, UniProt Q7Z6A9)	binding, microscale thermophoresis	–	–	9.68 µM
COc1ccc(CC(=O)OCc2ccc(-n3cccn3)cc2)cc1F	CD28	microscale thermophoresis	–	2% DMSO	24.1 ± 6.3 µM
Cc1ccc(C(=O)Nc2ccccc2C(=O)O)cc1S(=O)(=O)Nc1ccc(Cl)c(Cl)c1	RPA1 N-terminal domain	binding, fluorescence polarisation competition	–	with: FITC-ATRIP probe	7 ± 3 µM
CC(=O)c1ccc(-c2cc(NCCO)nc3[nH]ccc23)nc1	CD27	binding, microscale thermophoresis	–	–	8.62 µM
CC(C)(C)c1ccnc(NC(=O)c2ccc(-c3nn([C@@H]4CCCN(C(=O)C5CC5)C4)c4ncnc(N)c34)cc2)c1	BTK non-phosphorylated	TR-FRET binding kinetics	–	37 °C, unphosphorylated enzyme	0.055 ± 0.002 µM
C/C=C/Cn1c(Cc2cc(OC)c(OC)c(OC)c2)nc2c(N)ncnc21	Heat shock protein HSP 90-alpha, N-terminal domain (HSP90AA1, Homo sapiens, UniProt P07900, S52A)	isothermal titration calorimetry	–	298 K, N-terminal domain S52A	4.2 µM and 4.15 µM
Cc1ccc(O)c(C(=O)c2cnc3c(c2)c(C)nn3-c2ccc([N+](=O)[O-])cc2)c1	CD27	binding, microscale thermophoresis	–	–	2.04 µM
Nc1ncnc2c1c(-c1ccc(C(=O)Nc3cc(C4CC4)ccn3)cc1)nn2[C@@H]1CCCN(C(=O)C2CC2)C1	BTK non-phosphorylated	TR-FRET binding kinetics	–	37 °C, unphosphorylated enzyme	0.0024 ± 0.0001 µM
Cc1ccc(C(=O)Nc2ccc(F)cc2C(=O)O)cc1S(=O)(=O)Nc1cccc(Cl)c1	RPA1 N-terminal domain	binding, fluorescence polarisation competition	–	with: FITC-ATRIP probe	35 µM
C=CCNC(=O)c1cn(Cc2ccc(C)o2)cc(C(=O)NCCc2c[nH]c3ccccc23)c1=O	Tumor necrosis factor receptor superfamily member 9	binding, microscale thermophoresis	–	–	7.72 µM
COc1ccc([C@H]2OC[C@H](C)[C@@H]([C@@H](C)[C@@H](OC)[C@@H](C)/C=C/C(=O)[C@H](C)[C@@H](C/C=C/N(C)C=O)OC)O2)cc1	Actin, alpha skeletal muscle, monomeric (ACTA1, Oryctolagus cuniculus, UniProt P68135)	Prodan fluorescence titration	G-actin	pH 8.0, with: 0.2 mM ATP	0.132 ± 0.0134 µM
Cc1ccc(C(=O)Nc2cc(Cl)ccc2C(=O)O)cc1S(=O)(=O)Nc1cccc(Cl)c1	RPA1 N-terminal domain	binding, fluorescence polarisation competition	–	with: FITC-ATRIP probe	8 ± 0.45 µM
N[C@@H](CCSC[C@H]1O[C@@H](n2cnc3c(NCCCCNC(=O)CC(NC(=O)c4ccc(C5(C(F)(F)F)N=N5)cc4)C(=O)NCCCOCCOCCOCCCNC(=S)Nc4ccc5c(c4)C(=O)OC54c5ccc(O)cc5Oc5cc(O)ccc54)ncnc32)[C@H](O)[C@@H]1O)C(=O)O (stereo partly drawn)	AHCY (Homo sapiens, UniProt P23526)	binding, fluorescence anisotropy	–	–	6 ± 2.9 µM

Some of these lines once more:
SMILES	target	assay	system	conditions	Kd
Cc1ccc(C(=O)Nc2ccc(F)cc2C(=O)O)cc1S(=O)(=O)Nc1cccc(Cl)c1	RPA1 N-terminal domain	binding, fluorescence polarisation competition	–	with: FITC-ATRIP probe	35 µM
COc1ccc([C@H]2OC[C@H](C)[C@@H]([C@@H](C)[C@@H](OC)[C@@H](C)/C=C/C(=O)[C@H](C)[C@@H](C/C=C/N(C)C=O)OC)O2)cc1	Actin, alpha skeletal muscle, monomeric (ACTA1, Oryctolagus cuniculus, UniProt P68135)	Prodan fluorescence titration	G-actin	pH 8.0, with: 0.2 mM ATP	0.132 ± 0.0134 µM
N[C@@H](CCSC[C@H]1O[C@@H](n2cnc3c(NCCCCNC(=O)CC(NC(=O)c4ccc(C5(C(F)(F)F)N=N5)cc4)C(=O)NCCCOCCOCCOCCCNC(=S)Nc4ccc5c(c4)C(=O)OC54c5ccc(O)cc5Oc5cc(O)ccc54)ncnc32)[C@H](O)[C@@H]1O)C(=O)O (stereo partly drawn)	AHCY (Homo sapiens, UniProt P23526)	binding, fluorescence anisotropy	–	–	6 ± 2.9 µM
COc1cc(/C=C/c2ccc3cc(OCC[18F])ccc3n2)ccn1	Alpha-synuclein, fibrils (SNCA, Homo sapiens, UniProt P37840)	fibril binding, homologous radioligand competition	–	1 h, 37 °C	0.079 µM
Cc1ccc(NS(=O)(=O)c2cc(C(=O)Nc3ccccc3C(=O)O)ccc2C)cc1	RPA1 N-terminal domain	binding, fluorescence polarisation competition	–	with: FITC-ATRIP probe	196 µM
Cc1ccc(C(=O)Nc2cc(C(F)(F)F)cc(C(F)(F)F)c2)cc1Nc1nc(-c2cccnc2)nc2c1cnn2C	EPHA2	binding, microscale thermophoresis	kinase domain	25 °C, 5% DMSO	0.284 µM
Cc1noc(C)c1-c1ccc2nc(-c3cnn(CC(C)(C)O)c3)nc(N3CCOC[C@@H]3c3ccccc3)c2c1 (single isomer, unassigned)	EP300 (Homo sapiens, UniProt Q09472)	BROMOscan competition binding	–	–	0.19 µM
O=S(=O)(Cc1ccc(-c2nc(-c3cccnc3)no2)o1)c1ccc(Cl)cc1	Catenin beta-1, residues 141-305 (CTNNB1, Homo sapiens, UniProt P35222)	isothermal titration calorimetry	–	25 °C	0.27 µM
